Published values collected from several papers.
A part holds a random share of what one study measured. Positions count from the first letter of the parent shown.

Series 1
Target: Ras GTPase-activating protein-binding protein 1, full length (G3BP1, Homo sapiens, UniProt Q13283)
Chain of UniProt Q13283 (whole entry, looked up): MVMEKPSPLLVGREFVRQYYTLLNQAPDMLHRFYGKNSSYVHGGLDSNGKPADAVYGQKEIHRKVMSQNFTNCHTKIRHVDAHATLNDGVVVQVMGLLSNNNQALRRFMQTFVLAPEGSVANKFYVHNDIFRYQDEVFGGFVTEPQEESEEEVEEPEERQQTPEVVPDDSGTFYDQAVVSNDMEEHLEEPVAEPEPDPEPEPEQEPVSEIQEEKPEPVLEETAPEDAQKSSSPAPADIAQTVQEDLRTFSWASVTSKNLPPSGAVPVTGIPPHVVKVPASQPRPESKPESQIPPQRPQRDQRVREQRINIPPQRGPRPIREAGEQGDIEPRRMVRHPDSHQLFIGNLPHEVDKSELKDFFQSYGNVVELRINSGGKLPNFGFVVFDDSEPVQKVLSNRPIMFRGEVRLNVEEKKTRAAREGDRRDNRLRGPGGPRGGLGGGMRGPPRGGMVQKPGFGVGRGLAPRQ
Method: RNA Bind-n-Seq
Form: RNA
Sample: in vitro
Concentration: 200 nM
Setting: whole 134-nt RNA, ends assumed
Added: 150 mM KCl
Reference: input library
Direction: higher = stronger binding
Shared flanks, not repeated: GGGAGUUCUACAGUCCGACGAUC … UGGAAUUCUCGGGUGUCAAGG
| Oligonucleotide | log2 enrichment |
| --- | --- |
| CCUGUGCUACACAUCGUAUGUACCGAAUCGGGGAAAAAAGGGGAAAAAAGGAAAAAAGGGGAAAGUAUUAUGUUACGCCGUUCGGAUCUG | -0.34 |
| ACCAUGCAGGUGGGCAUCUUUGGGAAGUCGGGCAAGGGGGGGAUAGGGAGGGGGGUAACACUUUGGGAACAGGUGGUCCCAGGUCGUUUC | 1.1 |
| UCCUGUGCUACACAUCGUAUGUACCGAAUCGGGGUUUUUUUGGGGUUUGGGGUUUGGGGAAAGUAUUAUGUUACGCCGUUCGGAUCUGCA | 0.8 |
| AAGUCCUGUGCUACACAUCGUAUGUACCGAAUCGGCCCCCGGCCCCCGGGCCCCCGGAAAGUAUUAUGUUACGCCGUUCGGAUCUGCACU | -0.447 |
| GCAGGAAGUAAAAACAAAUGGAAAUGCUUCGGAUAGUGGCAGGGGUGGAAAUUGCUAAGGAAAGGGUGGGAUGGGAGUGGGUAAAGAGUU | 0.805 |
| AGUCCUGUGCUACACAUCGUAUGUACCGAAUCGGGGUUUUUUUGGGGUGGGGUGGGGAAAGUAUUAUGUUACGCCGUUCGGAUCUGCACU | 0.817 |
| AGUCCUGUGCUACACAUCGUAUGUACCGAAUCGGAAAAAGGAAAAAGGUUUUUUUGGAAAGUAUUAUGUUACGCCGUUCGGAUCUGCACU | -1.67 |
| UGGGAGGUGGAUUUUGUUUAUUUUUUGAGCUCAUUUCCAGGGGUGGGAAUUUUUUUUUAAUAUGUGUCAUGAAUAAAGUUGUUUUUGAAA | 0.313 |
| GUCCUGUGCUACACAUCGUAUGUACCGAAUCAAAUUUUUAAACCCCCCCAAACCCAAAAAAGUAUUAUGUUACGCCGUUCGGAUCUGCAC | -0.136 |

Series 2
Target: Histone acetyltransferase KAT6A, winged helix 1, GST fusion (KAT6A, Homo sapiens, UniProt Q92794, residues 1-85)
Method: protein binding microarray
Form: double-stranded DNA, one strand shown
Sample: in vitro
Concentration: not given
Setting: 8-mer, flanks averaged, mean of 2 arrays, mostly near background
Reference: not given
Direction: higher = stronger binding
Target sequence (chain): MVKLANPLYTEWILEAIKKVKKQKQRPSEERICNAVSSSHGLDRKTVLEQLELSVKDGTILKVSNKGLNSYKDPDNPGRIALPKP
| Oligonucleotide | E-score |
| --- | --- |
| CTTGTACC | -0.0191 |
| ATGTCCTA | 0.0437 |
| CCAGTCCA | -0.28 |
| AATCCGGG | 0.118 |
| GGATCGCC | 0.134 |
| ATGCGGTA | 0.258 |
| TCCGGCCA | 0.137 |
| AGCCCACG | -0.121 |

Series 3
Target: CCNB2, cyclin fold, Cln2 fusion (human)
Method: yeast growth competition, sequencing
Sample: yeast
Setting: weak parent motif
Reference: not given
Direction: higher = stronger binding
Parent: CDC6 docking peptide (human); TLKGRRLVFDNQL
| Change | normalised enrichment score |
| --- | --- |
| TLKGRRLVFDNWL [Q12W] | 0.719 |
| TLKGRRLVFDRQL [N11R] | 0.766 |
| TLKGRRLAFDNQL [V8A] | 0.103 |
| TLKGRHLVFDNQL [R6H] | 0.0773 |
| RLKGRRLVFDNQL [T1R] | 0.567 |
| ILKGRRLVFDNQL [T1I] | 0.256 |
| TLSGRRLVFDNQL [K3S] | 0.252 |
| TLKGRRLVFVNQL [D10V] | -0.185 |
| TLKGARAVFDNQL [R5A L7A] | 0.096 |
| TLKGRELVFDNQL [R6E] | -0.747 |
| TLKGRRLVFDNSL [Q12S] | -0.204 |

Mixed results
| Substance | target | test | system | setting | how to read | measurement | result |
| --- | --- | --- | --- | --- | --- | --- | --- |
| PhoQ, residues 284 288 289 292 302 303 SSTLSG | PhoP, residues 12 14 15 18 19 VQALL (Escherichia coli, UniProt P23836) | Sort-seq, item: YFP reporter | E. coli | PhoQ-PhoP variant library, added: 10 µM Mg2+ | reference: high Mg2+ state, higher = stronger signaling | fold induction | 10.1 |

Repeated from above (series 3):
| Change | normalised enrichment score |
| --- | --- |
| TLKGARAVFDNQL [R5A L7A] | 0.096 |
| ILKGRRLVFDNQL [T1I] | 0.256 |
